Measurements pooled from the literature.
Numbered parts are unrelated; each lists some results of a single study. Several values in a cell are separate wells, animals, samples, runs or records.
Sequence of UniProt P50750 (whole entry, looked up): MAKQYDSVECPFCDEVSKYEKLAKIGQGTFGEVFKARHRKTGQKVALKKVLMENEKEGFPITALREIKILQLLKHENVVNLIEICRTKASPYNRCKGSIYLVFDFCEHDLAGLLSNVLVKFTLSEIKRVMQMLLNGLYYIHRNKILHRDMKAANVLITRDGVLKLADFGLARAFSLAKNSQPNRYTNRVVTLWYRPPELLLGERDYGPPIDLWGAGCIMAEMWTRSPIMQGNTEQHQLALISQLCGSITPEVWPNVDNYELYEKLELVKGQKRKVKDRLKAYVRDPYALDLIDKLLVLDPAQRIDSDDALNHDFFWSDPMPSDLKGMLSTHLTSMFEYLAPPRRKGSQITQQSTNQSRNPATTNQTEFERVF
Sequence of UniProt P43403 (whole entry, looked up): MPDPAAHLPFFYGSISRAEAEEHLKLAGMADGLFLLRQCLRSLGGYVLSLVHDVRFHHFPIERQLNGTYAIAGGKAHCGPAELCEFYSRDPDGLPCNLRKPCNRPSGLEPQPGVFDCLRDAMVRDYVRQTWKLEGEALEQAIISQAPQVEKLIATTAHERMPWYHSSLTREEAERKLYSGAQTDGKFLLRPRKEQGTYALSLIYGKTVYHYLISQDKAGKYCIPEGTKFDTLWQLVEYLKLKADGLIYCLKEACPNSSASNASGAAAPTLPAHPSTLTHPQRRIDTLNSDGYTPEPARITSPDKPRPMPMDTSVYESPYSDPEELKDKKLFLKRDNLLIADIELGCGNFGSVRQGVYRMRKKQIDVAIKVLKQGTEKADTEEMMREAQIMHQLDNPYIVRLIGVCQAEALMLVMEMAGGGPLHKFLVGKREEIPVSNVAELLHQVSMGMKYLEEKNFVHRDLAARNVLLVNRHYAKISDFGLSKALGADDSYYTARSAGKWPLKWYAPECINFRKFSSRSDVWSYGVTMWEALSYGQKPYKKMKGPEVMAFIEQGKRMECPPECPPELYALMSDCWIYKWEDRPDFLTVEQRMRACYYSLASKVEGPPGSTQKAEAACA
Sequence of UniProt P29322 (whole entry, looked up): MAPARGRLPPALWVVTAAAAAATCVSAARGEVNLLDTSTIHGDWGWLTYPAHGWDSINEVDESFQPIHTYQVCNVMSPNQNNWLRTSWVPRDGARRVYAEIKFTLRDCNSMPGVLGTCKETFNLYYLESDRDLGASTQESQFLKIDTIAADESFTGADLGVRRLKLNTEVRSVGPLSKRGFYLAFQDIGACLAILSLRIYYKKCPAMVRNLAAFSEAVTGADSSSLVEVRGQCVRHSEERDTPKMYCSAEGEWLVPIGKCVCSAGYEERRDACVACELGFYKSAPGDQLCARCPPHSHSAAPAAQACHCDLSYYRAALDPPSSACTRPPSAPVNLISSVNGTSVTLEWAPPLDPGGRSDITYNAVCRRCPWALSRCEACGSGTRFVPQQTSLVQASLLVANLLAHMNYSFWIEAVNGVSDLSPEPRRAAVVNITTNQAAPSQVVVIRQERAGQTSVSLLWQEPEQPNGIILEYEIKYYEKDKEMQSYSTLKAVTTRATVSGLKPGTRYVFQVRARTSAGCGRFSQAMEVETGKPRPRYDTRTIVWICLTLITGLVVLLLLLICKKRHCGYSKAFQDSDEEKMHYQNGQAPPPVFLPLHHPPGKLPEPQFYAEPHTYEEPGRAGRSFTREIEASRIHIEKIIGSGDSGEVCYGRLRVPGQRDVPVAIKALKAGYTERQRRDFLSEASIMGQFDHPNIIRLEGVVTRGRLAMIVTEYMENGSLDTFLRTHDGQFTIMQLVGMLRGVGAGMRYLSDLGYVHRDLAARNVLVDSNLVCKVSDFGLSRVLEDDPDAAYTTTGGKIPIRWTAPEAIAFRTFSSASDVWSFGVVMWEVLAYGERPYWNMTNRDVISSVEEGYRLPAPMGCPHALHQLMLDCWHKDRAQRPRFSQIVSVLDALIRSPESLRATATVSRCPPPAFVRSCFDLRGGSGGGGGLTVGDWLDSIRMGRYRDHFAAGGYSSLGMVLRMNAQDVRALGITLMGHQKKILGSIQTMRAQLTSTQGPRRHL

Set 1
Target: Eukaryotic initiation factor 4A-III (Homo sapiens, UniProt P38919)
Sequence of UniProt P38919 (whole entry, looked up): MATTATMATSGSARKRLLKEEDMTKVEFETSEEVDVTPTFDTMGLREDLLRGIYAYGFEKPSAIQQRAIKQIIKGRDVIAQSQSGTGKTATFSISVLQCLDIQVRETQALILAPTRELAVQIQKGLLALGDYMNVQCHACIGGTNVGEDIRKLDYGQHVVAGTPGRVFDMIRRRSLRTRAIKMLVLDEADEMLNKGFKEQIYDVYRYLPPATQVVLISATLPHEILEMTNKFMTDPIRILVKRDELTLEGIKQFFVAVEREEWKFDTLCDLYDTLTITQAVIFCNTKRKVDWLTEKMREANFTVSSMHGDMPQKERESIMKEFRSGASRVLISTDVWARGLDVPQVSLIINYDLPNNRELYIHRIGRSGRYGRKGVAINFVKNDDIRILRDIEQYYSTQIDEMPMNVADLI
Effect on: RNA clamping
Technique: fluorescence polarization
Concentration: concentration not given
Notes: mean of two replicates
With: FAM-labelled poly r(AG)8 RNA
For `COc1ccc([C@@]23Oc4cc(OC)cc(OC)c4[C@]2(O)C2=C(C(=O)N4CCC[C@H]4O2)[C@H]3c2ccccc2)cc1`, “fluorescence polarization change” read 35.2 mP.
For `COC(=O)[C@@H]1[C@@H](c2ccccc2)[C@]2(c3ccc(OC)cc3)Oc3cc(OC)cc(OC)c3[C@@]23OC(Cc2ccccc2)=N[C@@]13O`, “fluorescence polarization change” read 7.2 mP.
`COc1ccc([C@@]23Oc4cc(OC)cc(OC)c4[C@@]24NC(C)=N[C@@]4(O)[C@H](C(C)=O)[C@H]3c2ccccc2)cc1` — result for “fluorescence polarization change”: 28 mP.

Set 2
Organism: Plasmodium berghei
Action: inhibitor
Cell line: Huh-7
Strain: liver stage
Concentration: 10 µM
Time: 24 h
Baseline: untreated control
`c1ccc([C@H]2CN3CCSC3=N2)cc1` gave an infection rate of 90%.
The infection rate of `C[N+]1(C)[C@@H]2CC[C@H]1C[C@@H](OC(=O)C(O)c1ccccc1)C2` (stereo partly shown) is reported as 83.4%.
The infection rate of `CCOC(=O)[C@@](C)(N)Cc1ccc(O)c(O)c1` is reported as 65.3%.

Set 3
SMILES: Cc1ccc(NC(=O)c2ccnc(C(F)(F)F)c2)cc1-c1cc(OCCO)nc(N2CCOCC2)c1
Technique: competitive binding panel
Concentration: 1 µM
Baseline: vehicle
CDK9 (Homo sapiens, UniProt P50750) — remaining binding: 100%.
For ZAP70 (Homo sapiens, UniProt P43403): remaining binding read 100%.
It gave 92% for remaining binding (EPHA8 (Homo sapiens, UniProt P29322)).

Set 4
Target: Sigma non-opioid intracellular receptor 1 (SIGMAR1, Homo sapiens, UniProt Q99720)
Sequence of UniProt Q99720 (whole entry, looked up): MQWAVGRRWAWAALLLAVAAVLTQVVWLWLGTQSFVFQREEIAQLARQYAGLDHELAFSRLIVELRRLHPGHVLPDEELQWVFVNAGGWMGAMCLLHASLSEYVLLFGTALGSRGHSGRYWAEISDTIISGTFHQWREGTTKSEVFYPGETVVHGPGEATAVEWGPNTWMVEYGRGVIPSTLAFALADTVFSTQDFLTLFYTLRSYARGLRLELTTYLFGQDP
Effect on: ligand displacement
Concentration: 10 µM
For `O=C(Nc1ccc(Oc2ccc(F)cc2)cc1)N1CCc2ncccc2[C@H]1c1ccc(F)cc1`, the inhibition was 73.4%.
`CN(C)c1ncnc(-c2ccc3nc(Nc4cc(CN5CCN(C(=O)CC(F)(F)F)CC5)ccn4)[nH]c3c2)c1Cl` has an inhibition of 13.9%.
`O=C(NS(=O)(=O)c1ccc(NCC2CCOCC2)c([N+](=O)[O-])c1)c1ccc(N2CCN(Cc3ccc(C(F)(F)F)cc3-c3ccc(Cl)cc3)CC2)cc1Oc1cnc2[nH]ccc2c1` gave an inhibition of 11.1%.
`Nc1nc(NCc2ccccc2)nc(-c2cccc(CO)c2)n1` gave an inhibition of 0.95%.
For `Cn1cc(Cl)c2c(Oc3c(F)cc(Nc4cc(Cl)nc(N)n4)cc3F)ccnc21`, the inhibition was 22.3%.
For `Cc1ccc(-c2cnc([C@@]3(O)CC[C@H](C(=O)O)C(C)(C)C3)s2)cc1Nc1cccc(C(F)(F)F)n1`, the inhibition was -11.4%.
With `COc1cc(-c2cn(C3CCc4c(F)cccc4N(CC(F)(F)F)C3=O)nn2)ccc1-n1cnc(C)c1` (stereo not shown) the inhibition was 26.6%.
`CNC(=O)Nc1ccc2c(c1)CC[C@]21OC(=O)N(CC(=O)N(Cc2ccc(F)cc2)[C@@H](C)C(F)(F)F)C1=O` has an inhibition of 34.5%.
`C[C@@H]1CN(c2cc(-c3n[nH]c4ccc(OC5(C)CC5)cc34)ncn2)C[C@H](C)O1` has an inhibition of 35.9%.
The inhibition of `COCCOc1nc(-c2ccc(Cl)nc2)nc2c1CN(C(=O)c1ncn3ccccc13)CC2` is reported as 38.1%.
The inhibition of `Nc1cnc(N2CCc3cc(S(=O)(=O)Nc4c(F)cc(Cl)cc4F)cc(N4CCCC4=O)c32)nc1` is reported as -14.4%.
For `COc1cc(C(=O)O)ncc1C#Cc1ccccc1NS(=O)(=O)c1cccc2c(N(C)C)ccnc12`, the inhibition was 18.7%.
`COc1cccc(NC(=O)c2nc3scc(CN(C)Cc4ccccc4)c3c(=O)[nH]2)c1` gave an inhibition of 80.7%.

Set 5
Cell line: HaCaT
Concentration: 100 µM
Time: 18 h
`Cc1ccnc(NS(=O)(=O)c2ccc(N)cc2)n1` gave a viability of 93.1%.
`CC(=O)c1ccc2c(c1)N(CCCN1CCC(CCO)CC1)c1ccccc1S2` has a viability of 17.1%.
The viability of `CC(C)C[C@H](NC(=O)CNC(=O)c1cc(Cl)ccc1Cl)B(O)O` is reported as 20.5%.

Other studies, line by line
CAMK2A: Calcium/calmodulin-dependent protein kinase type II subunit alpha (CAMK2A, Homo sapiens, UniProt Q9UQM7)
Sequence of UniProt Q9UQM7 (whole entry, looked up): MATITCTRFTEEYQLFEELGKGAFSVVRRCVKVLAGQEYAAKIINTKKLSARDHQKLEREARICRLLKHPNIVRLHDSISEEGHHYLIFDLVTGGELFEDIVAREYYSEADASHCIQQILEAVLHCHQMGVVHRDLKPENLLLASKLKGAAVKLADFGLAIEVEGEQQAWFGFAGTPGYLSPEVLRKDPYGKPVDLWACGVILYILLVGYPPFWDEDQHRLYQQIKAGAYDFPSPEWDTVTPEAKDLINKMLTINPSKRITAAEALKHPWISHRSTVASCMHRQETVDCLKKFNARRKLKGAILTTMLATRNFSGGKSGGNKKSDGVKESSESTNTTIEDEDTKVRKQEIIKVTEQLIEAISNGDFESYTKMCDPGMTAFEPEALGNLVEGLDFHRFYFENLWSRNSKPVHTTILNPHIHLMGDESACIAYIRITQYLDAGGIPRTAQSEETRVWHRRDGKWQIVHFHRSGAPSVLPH
The inhibition of `COC(=O)CCc1ccccc1` is reported as -4% (CAMK2A; enzyme activity, inhibitor; 10 µM).
`COc1ccc(-c2c(Nc3ccccn3)[nH]c3c(C4=CCCCC4)c(-c4ccccc4)nn3c2=O)cc1` gave a Ctau of 9770 ng/mL and 9650 ng/mL (human, plasma; oral, 200 mg twice daily, 12 h).
`COc1cc(O)c2c(=O)c(O[C@@H]3O[C@H](CO[C@@H]4O[C@@H](C)[C@H](O)[C@@H](O)[C@H]4O)[C@@H](O)[C@H](O)[C@H]3O)c(-c3ccc(OC)c(O)c3)oc2c1` gave an inhibition of -3% (CAMK2A; enzyme activity, inhibitor; 10 µM).

A few entries again (set 2):
The infection rate of `CCOC(=O)[C@@](C)(N)Cc1ccc(O)c(O)c1` is reported as 65.3%.
The infection rate of `C[N+]1(C)[C@@H]2CC[C@H]1C[C@@H](OC(=O)C(O)c1ccccc1)C2` (stereo partly shown) is reported as 83.4%.
`c1ccc([C@H]2CN3CCSC3=N2)cc1` gave an infection rate of 90%.
